# Earlier results, collected from citations in different studies.
# Each line is one published result; not all experiments were run side by side.
SMILES,organism,effect on,method,strain,MIC
CSCC[C@H](NC(=O)[C@H](CCCNC(=N)N)NC(=O)[C@H](Cc1c[nH]c2ccccc12)NC(=O)[C@H](CCC(N)=O)NC(=O)[C@H](Cc1c[nH]c2ccccc12)NC(=O)[C@H](CCCNC(=N)N)NC(=O)[C@H](CCCNC(=N)N)NC(=O)[C@H](C)NC(=O)[C@H](CCCCN)NC(=O)[C@@H](N)Cc1ccccc1)C(=O)N[C@@H](CCCCN)C(=O)N[C@@H](CCCCN)C(=O)N[C@@H](CC(C)C)C(=O)NCC(=O)N[C@@H](C)C(=O)NCCCC[C@H](NC(=O)[C@H](C)NC(=O)CNC(=O)[C@H](CC(C)C)NC(=O)[C@H](CCCCN)NC(=O)[C@H](CCCCN)NC(=O)[C@H](CCSC)NC(=O)[C@H](CCCNC(=N)N)NC(=O)[C@H](Cc1c[nH]c2ccccc12)NC(=O)[C@H](CCC(N)=O)NC(=O)[C@H](Cc1c[nH]c2ccccc12)NC(=O)[C@H](CCCNC(=N)N)NC(=O)[C@H](CCCNC(=N)N)NC(=O)[C@H](C)NC(=O)[C@H](CCCCN)NC(=O)[C@@H](N)Cc1ccccc1)C(=O)NCCCCCC(N)=O,Escherichia coli,,broth microdilution,ATCC 11775,> 48 µM
CCn1cc(C(=O)NCCNCCO)c(=O)c2cc(OCc3ccc(C(F)(F)F)cc3)c(Cl)cc21,Acinetobacter baumannii,growth,,ATCC 19606,32 µg/mL
CCCC/C=C/C(=O)N[C@@H](Cc1cc(F)cc(F)c1)C(=O)N[C@@H](COC(=O)[C@@H]1CCCN1C(C)=O)C(=O)OC,Bacillus subtilis,,,,32 µg/mL
N#Cc1c(-c2ccco2)c(C#N)c(=O)n(-c2cccc(C(F)(F)F)c2)c1N,Candida albicans,,,,1.95 µg/mL
C#CCN(Cc1ccccn1)Cc1ccccn1.F[P-](F)(F)(F)(F)F.[C-]#[O+].[C-]#[O+].[C-]#[O+].[Re+],"Bacillus subtilis, Staphylococcus aureus",,,incl. MRSA,> 512 µg/mL
c1ccc(CSc2nc3ccccc3cc2CNCCC2CCN(C3CCCC3)CC2)cc1,Pseudomonas aeruginosa,,,multidrug-resistant,16 to 64 µg/mL
CC(=O)N1CCc2cc(S(=O)(=O)N3CCN(c4cc(Cl)cc(C(F)(F)F)c4)CC3)ccc21,Klebsiella pneumoniae,,,10031,1.6 µg/mL
N=C(N)NCCC[C@H](NC(=O)[C@H](Cc1c[nH]c2ccccc12)NC(=O)[C@H](CCC(N)=O)NC(=O)[C@H](Cc1c[nH]c2ccccc12)NC(=O)[C@H](CCCNC(=N)N)NC(=O)[C@@H](N)CCCNC(=N)N)C(=O)NCCCC[C@H](NC(=O)[C@H](CCCNC(=N)N)NC(=O)[C@H](Cc1c[nH]c2ccccc12)NC(=O)[C@H](CCC(N)=O)NC(=O)[C@H](Cc1c[nH]c2ccccc12)NC(=O)[C@H](CCCNC(=N)N)NC(=O)[C@@H](N)CCCNC(=N)N)C(=O)NCCCCCC(N)=O,Escherichia coli,,broth microdilution,ATCC 25922,6 µM
Oc1c(Br)cc(I)c2nc3cc(Cl)c(Cl)cc3nc12,Staphylococcus aureus,,,MRSA,0.3 µM
CSCC[C@H](NC(=O)[C@H](CCCNC(=N)N)NC(=O)[C@H](Cc1c[nH]c2ccccc12)NC(=O)[C@H](CCC(N)=O)NC(=O)[C@H](Cc1c[nH]c2ccccc12)NC(=O)[C@H](CCCNC(=N)N)NC(=O)[C@@H](N)CCCNC(=N)N)C(=O)N[C@@H](CCCCN)C(=O)N[C@@H](CCCCN)C(=O)N[C@@H](CC(C)C)C(=O)NCC(=O)NCCCC[C@H](NC(=O)CNC(=O)[C@H](CC(C)C)NC(=O)[C@H](CCCCN)NC(=O)[C@H](CCCCN)NC(=O)[C@H](CCSC)NC(=O)[C@H](CCCNC(=N)N)NC(=O)[C@H](Cc1c[nH]c2ccccc12)NC(=O)[C@H](CCC(N)=O)NC(=O)[C@H](Cc1c[nH]c2ccccc12)NC(=O)[C@H](CCCNC(=N)N)NC(=O)[C@@H](N)CCCNC(=N)N)C(=O)NCCCCCC(N)=O,Escherichia coli,,broth microdilution,ATCC 11775,60 µM
CC(=O)N1CCc2cc(S(=O)(=O)N3CCN(c4cccc(C(F)(F)F)c4)CC3)ccc21,Klebsiella pneumoniae,,,10031,> 64 µg/mL
N=C(N)NCCC[C@H](NC(=O)[C@H](Cc1c[nH]c2ccccc12)NC(=O)[C@H](CCC(N)=O)NC(=O)[C@H](Cc1c[nH]c2ccccc12)NC(=O)[C@H](CCCNC(=N)N)NC(=O)[C@@H](N)CCCNC(=N)N)C(=O)NCCCC[C@H](NC(=O)[C@H](CCCNC(=N)N)NC(=O)[C@H](Cc1c[nH]c2ccccc12)NC(=O)[C@H](CCC(N)=O)NC(=O)[C@H](Cc1c[nH]c2ccccc12)NC(=O)[C@H](CCCNC(=N)N)NC(=O)[C@@H](N)CCCNC(=N)N)C(=O)NCCCCCC(=O)N[C@@H](CSSC[C@H](NC(=O)CCCCCNC(=O)[C@H](CCCCNC(=O)[C@H](CCCNC(=N)N)NC(=O)[C@H](Cc1c[nH]c2ccccc12)NC(=O)[C@H](CCC(N)=O)NC(=O)[C@H](Cc1c[nH]c2ccccc12)NC(=O)[C@H](CCCNC(=N)N)NC(=O)[C@@H](N)CCCNC(=N)N)NC(=O)[C@H](CCCNC(=N)N)NC(=O)[C@H](Cc1c[nH]c2ccccc12)NC(=O)[C@H](CCC(N)=O)NC(=O)[C@H](Cc1c[nH]c2ccccc12)NC(=O)[C@H](CCCNC(=N)N)NC(=O)[C@@H](N)CCCNC(=N)N)C(N)=O)C(N)=O,Escherichia coli,,broth microdilution,ATCC 11775,22 µM
Cc1ccc(/N=N/c2c(C)c(C(=O)Nc3ccccc3)c(N)n(-c3ccccc3)c2=O)cc1,Bacillus subtilis,,,,0.98 µg/mL
CSCC[C@H](NC(=O)[C@H](CCCNC(=N)N)NC(=O)[C@H](Cc1c[nH]c2ccccc12)NC(=O)[C@H](CCC(N)=O)NC(=O)[C@H](Cc1c[nH]c2ccccc12)NC(=O)[C@H](CCCNC(=N)N)NC(=O)[C@@H](N)CCCNC(=N)N)C(=O)N[C@@H](CCCCN)C(=O)N[C@@H](CCCCN)C(=O)N[C@@H](CC(C)C)C(=O)NCC(=O)NCCCC[C@H](NC(=O)CNC(=O)[C@H](CC(C)C)NC(=O)[C@H](CCCCN)NC(=O)[C@H](CCCCN)NC(=O)[C@H](CCSC)NC(=O)[C@H](CCCNC(=N)N)NC(=O)[C@H](Cc1c[nH]c2ccccc12)NC(=O)[C@H](CCC(N)=O)NC(=O)[C@H](Cc1c[nH]c2ccccc12)NC(=O)[C@H](CCCNC(=N)N)NC(=O)[C@@H](N)CCCNC(=N)N)C(=O)NCCCCCC(=O)N[C@@H](CSSC[C@H](NC(=O)CCCCCNC(=O)[C@H](CCCCNC(=O)CNC(=O)[C@H](CC(C)C)NC(=O)[C@H](CCCCN)NC(=O)[C@H](CCCCN)NC(=O)[C@H](CCSC)NC(=O)[C@H](CCCNC(=N)N)NC(=O)[C@H](Cc1c[nH]c2ccccc12)NC(=O)[C@H](CCC(N)=O)NC(=O)[C@H](Cc1c[nH]c2ccccc12)NC(=O)[C@H](CCCNC(=N)N)NC(=O)[C@@H](N)CCCNC(=N)N)NC(=O)CNC(=O)[C@H](CC(C)C)NC(=O)[C@H](CCCCN)NC(=O)[C@H](CCCCN)NC(=O)[C@H](CCSC)NC(=O)[C@H](CCCNC(=N)N)NC(=O)[C@H](Cc1c[nH]c2ccccc12)NC(=O)[C@H](CCC(N)=O)NC(=O)[C@H](Cc1c[nH]c2ccccc12)NC(=O)[C@H](CCCNC(=N)N)NC(=O)[C@@H](N)CCCNC(=N)N)C(N)=O)C(N)=O,Escherichia coli,,broth microdilution,ATCC 25922,15 µM
O=c1cc(-c2ccccc2)c2cc(Br)ccc2n1Cc1nnc2n1N=C(c1ccccc1)CS2,Pseudomonas aeruginosa,,,,4 µg/mL

# Excerpt of the above:
SMILES,organism,effect on,method,strain,MIC
CSCC[C@H](NC(=O)[C@H](CCCNC(=N)N)NC(=O)[C@H](Cc1c[nH]c2ccccc12)NC(=O)[C@H](CCC(N)=O)NC(=O)[C@H](Cc1c[nH]c2ccccc12)NC(=O)[C@H](CCCNC(=N)N)NC(=O)[C@@H](N)CCCNC(=N)N)C(=O)N[C@@H](CCCCN)C(=O)N[C@@H](CCCCN)C(=O)N[C@@H](CC(C)C)C(=O)NCC(=O)NCCCC[C@H](NC(=O)CNC(=O)[C@H](CC(C)C)NC(=O)[C@H](CCCCN)NC(=O)[C@H](CCCCN)NC(=O)[C@H](CCSC)NC(=O)[C@H](CCCNC(=N)N)NC(=O)[C@H](Cc1c[nH]c2ccccc12)NC(=O)[C@H](CCC(N)=O)NC(=O)[C@H](Cc1c[nH]c2ccccc12)NC(=O)[C@H](CCCNC(=N)N)NC(=O)[C@@H](N)CCCNC(=N)N)C(=O)NCCCCCC(N)=O,Escherichia coli,,broth microdilution,ATCC 11775,60 µM
